Published values from different studies.
Every numbered part comes from another study and shows a few of its results, in no order.
Chain of UniProt P53778 (whole entry, looked up): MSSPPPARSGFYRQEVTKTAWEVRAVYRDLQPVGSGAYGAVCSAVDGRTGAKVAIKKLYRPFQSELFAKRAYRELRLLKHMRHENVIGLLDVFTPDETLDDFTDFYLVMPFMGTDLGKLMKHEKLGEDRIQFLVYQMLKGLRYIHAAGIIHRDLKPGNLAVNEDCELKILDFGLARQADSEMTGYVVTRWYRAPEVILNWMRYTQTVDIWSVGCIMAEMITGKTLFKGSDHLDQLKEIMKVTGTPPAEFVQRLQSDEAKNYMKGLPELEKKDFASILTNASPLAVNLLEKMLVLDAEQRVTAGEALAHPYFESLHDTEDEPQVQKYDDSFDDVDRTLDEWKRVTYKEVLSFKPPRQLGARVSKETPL
Chain of UniProt Q96PY6 (whole entry, looked up): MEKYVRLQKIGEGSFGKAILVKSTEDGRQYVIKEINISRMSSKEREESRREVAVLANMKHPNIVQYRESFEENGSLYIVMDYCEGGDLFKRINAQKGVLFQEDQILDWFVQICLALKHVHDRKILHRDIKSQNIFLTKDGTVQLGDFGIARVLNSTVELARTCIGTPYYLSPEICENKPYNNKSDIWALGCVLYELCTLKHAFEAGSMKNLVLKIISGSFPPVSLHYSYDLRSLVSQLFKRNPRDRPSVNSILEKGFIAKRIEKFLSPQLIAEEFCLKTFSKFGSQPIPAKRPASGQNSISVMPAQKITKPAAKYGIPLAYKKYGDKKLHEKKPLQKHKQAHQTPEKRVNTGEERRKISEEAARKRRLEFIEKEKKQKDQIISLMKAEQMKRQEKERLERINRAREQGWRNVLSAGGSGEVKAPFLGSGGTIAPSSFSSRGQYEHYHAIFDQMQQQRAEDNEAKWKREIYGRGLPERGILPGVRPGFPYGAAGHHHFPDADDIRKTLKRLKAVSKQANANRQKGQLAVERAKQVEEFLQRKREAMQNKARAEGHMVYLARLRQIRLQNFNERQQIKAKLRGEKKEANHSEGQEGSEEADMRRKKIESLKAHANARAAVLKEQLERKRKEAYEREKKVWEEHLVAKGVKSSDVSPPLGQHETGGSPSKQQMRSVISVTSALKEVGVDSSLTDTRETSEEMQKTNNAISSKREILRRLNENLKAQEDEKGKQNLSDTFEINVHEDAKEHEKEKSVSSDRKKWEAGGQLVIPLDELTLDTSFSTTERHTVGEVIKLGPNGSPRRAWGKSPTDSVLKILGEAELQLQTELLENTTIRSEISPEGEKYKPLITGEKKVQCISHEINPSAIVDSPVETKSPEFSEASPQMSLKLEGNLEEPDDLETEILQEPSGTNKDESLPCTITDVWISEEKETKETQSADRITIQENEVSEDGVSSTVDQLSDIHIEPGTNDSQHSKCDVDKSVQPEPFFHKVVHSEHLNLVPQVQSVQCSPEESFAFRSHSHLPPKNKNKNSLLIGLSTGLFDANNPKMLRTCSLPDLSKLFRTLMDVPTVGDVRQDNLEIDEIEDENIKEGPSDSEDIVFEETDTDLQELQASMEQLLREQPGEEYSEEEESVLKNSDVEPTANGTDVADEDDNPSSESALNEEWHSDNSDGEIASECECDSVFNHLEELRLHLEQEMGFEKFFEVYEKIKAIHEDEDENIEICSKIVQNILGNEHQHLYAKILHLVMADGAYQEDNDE
Chain of UniProt P54646 (whole entry, looked up): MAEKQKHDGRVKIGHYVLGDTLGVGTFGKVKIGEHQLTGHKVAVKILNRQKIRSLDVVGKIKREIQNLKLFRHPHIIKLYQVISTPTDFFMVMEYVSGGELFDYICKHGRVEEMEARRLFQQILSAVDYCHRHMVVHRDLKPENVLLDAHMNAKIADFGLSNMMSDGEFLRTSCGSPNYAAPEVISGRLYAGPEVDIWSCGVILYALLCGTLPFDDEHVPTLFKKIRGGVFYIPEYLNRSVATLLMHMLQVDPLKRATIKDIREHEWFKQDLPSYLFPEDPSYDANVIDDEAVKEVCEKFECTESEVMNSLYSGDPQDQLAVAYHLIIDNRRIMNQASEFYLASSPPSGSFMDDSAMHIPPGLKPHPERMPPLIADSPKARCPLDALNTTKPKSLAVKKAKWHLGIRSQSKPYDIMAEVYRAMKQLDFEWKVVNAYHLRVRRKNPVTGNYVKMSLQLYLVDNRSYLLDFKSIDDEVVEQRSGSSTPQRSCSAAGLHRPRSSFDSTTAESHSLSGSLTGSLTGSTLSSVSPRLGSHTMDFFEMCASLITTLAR
Chain of UniProt Q04912 (whole entry, looked up): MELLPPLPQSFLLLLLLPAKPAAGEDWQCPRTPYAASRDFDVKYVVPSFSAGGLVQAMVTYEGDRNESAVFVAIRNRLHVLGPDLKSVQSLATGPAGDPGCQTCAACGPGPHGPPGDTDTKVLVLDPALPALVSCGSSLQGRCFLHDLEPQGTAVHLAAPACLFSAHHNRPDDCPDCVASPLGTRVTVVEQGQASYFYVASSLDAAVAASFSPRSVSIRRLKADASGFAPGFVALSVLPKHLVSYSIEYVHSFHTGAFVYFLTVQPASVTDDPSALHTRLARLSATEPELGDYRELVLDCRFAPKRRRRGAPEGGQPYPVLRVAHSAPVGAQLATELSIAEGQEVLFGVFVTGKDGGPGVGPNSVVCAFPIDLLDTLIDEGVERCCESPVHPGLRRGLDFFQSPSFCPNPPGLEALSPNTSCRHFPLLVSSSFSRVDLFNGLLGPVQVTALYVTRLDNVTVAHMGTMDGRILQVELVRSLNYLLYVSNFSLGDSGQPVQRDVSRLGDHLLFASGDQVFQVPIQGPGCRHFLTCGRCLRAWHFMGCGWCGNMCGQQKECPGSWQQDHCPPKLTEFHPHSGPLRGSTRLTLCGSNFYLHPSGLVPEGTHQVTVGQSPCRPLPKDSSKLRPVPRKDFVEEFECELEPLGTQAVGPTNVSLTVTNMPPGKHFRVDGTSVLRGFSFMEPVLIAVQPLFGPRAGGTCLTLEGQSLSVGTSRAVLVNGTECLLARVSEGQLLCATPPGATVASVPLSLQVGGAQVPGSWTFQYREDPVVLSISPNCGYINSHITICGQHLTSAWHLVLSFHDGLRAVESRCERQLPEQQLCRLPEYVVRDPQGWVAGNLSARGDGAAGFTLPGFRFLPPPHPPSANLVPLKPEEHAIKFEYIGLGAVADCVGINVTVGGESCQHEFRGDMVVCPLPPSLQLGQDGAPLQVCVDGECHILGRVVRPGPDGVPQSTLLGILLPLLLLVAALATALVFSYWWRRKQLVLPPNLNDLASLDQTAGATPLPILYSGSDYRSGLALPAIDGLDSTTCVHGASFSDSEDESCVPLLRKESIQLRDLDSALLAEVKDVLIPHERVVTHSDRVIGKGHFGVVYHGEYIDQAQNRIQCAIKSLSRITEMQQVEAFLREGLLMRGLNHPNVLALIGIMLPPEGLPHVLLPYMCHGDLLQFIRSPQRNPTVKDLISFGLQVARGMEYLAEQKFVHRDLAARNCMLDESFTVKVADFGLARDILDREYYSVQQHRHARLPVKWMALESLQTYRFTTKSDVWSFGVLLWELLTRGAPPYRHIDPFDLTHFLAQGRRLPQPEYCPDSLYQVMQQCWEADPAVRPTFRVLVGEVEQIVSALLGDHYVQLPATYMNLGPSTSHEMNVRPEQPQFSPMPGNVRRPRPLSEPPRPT
Chain of UniProt Q96PN8 (whole entry, looked up): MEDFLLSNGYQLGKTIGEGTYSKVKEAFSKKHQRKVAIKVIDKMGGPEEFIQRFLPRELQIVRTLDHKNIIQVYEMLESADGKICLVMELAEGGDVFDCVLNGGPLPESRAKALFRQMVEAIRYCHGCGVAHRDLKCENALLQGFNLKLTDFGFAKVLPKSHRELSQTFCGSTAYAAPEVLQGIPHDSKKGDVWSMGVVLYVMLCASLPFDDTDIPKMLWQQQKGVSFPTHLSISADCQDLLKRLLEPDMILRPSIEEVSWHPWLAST

Block 1
Cell line: A-375
Concentration: 100 µM
Time: 18 h
SMILES	viability [%]
CCCc1nc(C)c2c(=O)[nH]c(-c3cc(S(=O)(=O)N4CCN(CC)CC4)ccc3OCC)nn12	50.8
CCCCNc1ccc(C(=O)OCCN(C)C)cc1	90.6
CCN(CC)CCNC(=O)c1ccc(N)cc1	99.7
CC(C)[N+](C)(CCOC(=O)C1c2ccccc2Oc2ccccc21)C(C)C	85.9
CCCN(CCC)C(=O)C(CCC(=O)O)NC(=O)c1ccccc1 (stereo not drawn)	92
CN1CCN(C2=Nc3ccccc3Oc3ccc(Cl)cc32)CC1	15.4
O=[N+]([O-])c1cncn1CCN1CCOCC1	97.8

Block 2
Target: Macrophage colony-stimulating factor 1 receptor (CSF1R, Homo sapiens, UniProt P07333)
Chain of UniProt P07333 (whole entry, looked up): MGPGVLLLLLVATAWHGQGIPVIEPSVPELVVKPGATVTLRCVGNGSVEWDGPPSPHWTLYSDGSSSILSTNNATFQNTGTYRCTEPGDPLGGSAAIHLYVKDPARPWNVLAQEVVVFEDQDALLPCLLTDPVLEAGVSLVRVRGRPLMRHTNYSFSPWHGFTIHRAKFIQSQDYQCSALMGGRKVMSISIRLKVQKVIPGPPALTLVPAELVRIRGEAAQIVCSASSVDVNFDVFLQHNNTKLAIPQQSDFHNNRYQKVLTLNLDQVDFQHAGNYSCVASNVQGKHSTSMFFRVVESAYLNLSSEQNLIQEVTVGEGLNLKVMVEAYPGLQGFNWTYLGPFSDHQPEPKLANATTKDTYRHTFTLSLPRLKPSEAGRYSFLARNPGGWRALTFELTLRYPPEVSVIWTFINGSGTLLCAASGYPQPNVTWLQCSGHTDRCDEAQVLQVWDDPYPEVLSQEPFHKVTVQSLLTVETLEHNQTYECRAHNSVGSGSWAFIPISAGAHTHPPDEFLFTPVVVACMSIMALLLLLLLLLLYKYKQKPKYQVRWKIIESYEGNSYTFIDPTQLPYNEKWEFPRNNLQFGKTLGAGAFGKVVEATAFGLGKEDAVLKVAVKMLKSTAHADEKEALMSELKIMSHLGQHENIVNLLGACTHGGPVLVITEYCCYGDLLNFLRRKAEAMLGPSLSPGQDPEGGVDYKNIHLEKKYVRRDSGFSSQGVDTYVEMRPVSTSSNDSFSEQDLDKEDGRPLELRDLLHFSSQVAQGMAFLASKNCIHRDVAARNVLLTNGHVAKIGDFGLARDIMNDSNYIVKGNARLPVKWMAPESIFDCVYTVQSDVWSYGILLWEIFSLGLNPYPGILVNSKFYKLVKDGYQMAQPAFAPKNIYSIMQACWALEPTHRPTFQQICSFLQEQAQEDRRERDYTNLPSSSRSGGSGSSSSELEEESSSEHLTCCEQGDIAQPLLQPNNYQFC
Effect on: enzyme activity
Action: inhibitor
Concentration: 0.5 µM
Reference: control
SMILES	remaining activity [%]
CC(C)[C@H](CO)Nc1nc(Nc2cc(N)cc(Cl)c2)c2ncn(C(C)C)c2n1	71.1
COc1cc2ncnc(Nc3ccc(Oc4ccccc4)cc3)c2cc1OC	100
CO[C@H]1C[C@@H]2CC[C@@H](C)[C@@](O)(O2)C(=O)C(=O)N2CCCC[C@H]2C(=O)O[C@H]([C@H](C)C[C@@H]2CC[C@@H](O)[C@H](OC)C2)CC(=O)[C@H](C)/C=C(\C)[C@@H](O)[C@@H](OC)C(=O)[C@H](C)C[C@H](C)/C=C/C=C/C=C/1C	101
CN(C)c1ccc(C=C2C(=O)Nc3ccccc32)cc1	77.5
Cc1cccc(-c2[nH]c(C(C)(C)C)nc2-c2ccc3c(c2)OCO3)n1	102
COc1cc2nccc(Oc3ccc(NC(=S)NC(=O)c4ccccc4C)cc3)c2cc1OC	10.5
O=C1NC(=O)C(c2cn(CCCO)c3ncccc23)=C1c1cnccn1	98.4
Cn1sc(=O)n(Cc2ccccc2)c1=O	98.6
Nc1ccc2ncnc(NCCc3ccc(Oc4ccccc4)cc3)c2c1	106
Nc1[nH]nc2nc3ccccc3nc12	95.3
N#CC(C#N)=C(N)/C(C#N)=C/c1ccc(O)cc1	98
COc1ccc(CNC(=O)Nc2ncc([N+](=O)[O-])s2)cc1	99.2
Cn1c2ccccc2c2c3c(c4c5ccccc5n(CCC#N)c4c21)CNC3=O	84.1
O=C(O)c1ccc2c3c1cccc3c(=O)n1c3ccccc3nc21	104

Block 3
SMILES: CN([C@@H]1CCc2c(CC(=O)O)c3ccccc3n2C1)S(=O)(=O)c1ccc(F)cc1
Effect on: cell-free assay
Technique: competition with immobilised ligand
Concentration: 1 µM
target	remaining binding
TSSK3 (Homo sapiens, UniProt Q96PN8)	100%
PRKAA2 (Homo sapiens, UniProt P54646)	100%
MST1R (Homo sapiens, UniProt Q04912)	93%
STK25 (Homo sapiens, UniProt O00506)	99%
PHKG2 (Homo sapiens, UniProt P15735)	100%
MAPK12 (Homo sapiens, UniProt P53778)	94%
NEK1 (Homo sapiens, UniProt Q96PY6)	100%

Block 4
Host: human
Matrix: microsomes or S9
Concentration: 2 µM
Time: 0.5 h
SMILES	remaining compound [%]
Cn1cnc2c(Nc3cnn(-c4ccc(Cl)cc4)c3)ncnc21	94.2
O=C(Nc1cnccn1)c1cnc(-c2ncccn2)s1	> 100
CNC(=O)CC1CCOC2(CCN(C(=O)C3CCC3)CC2)C1 (stereo not drawn)	92.4
OC(Cn1c(Cc2ccccc2)nc2ccccc21)Cn1c2ccc(Cl)cc2c2cc(Cl)ccc21 (stereo not drawn)	> 99
CCN(CC)c1nc2c(S(=O)(=O)c3ccccc3)nnn2c2ccsc12	16.2

A few entries again (block 3):
target	remaining binding
PRKAA2 (Homo sapiens, UniProt P54646)	100%
MST1R (Homo sapiens, UniProt Q04912)	93%
STK25 (Homo sapiens, UniProt O00506)	99%
PHKG2 (Homo sapiens, UniProt P15735)	100%
MAPK12 (Homo sapiens, UniProt P53778)	94%
